Literature values, collected from citations in different studies.
Protocols differ between the studies behind these lines. Several values in a cell are separate wells, animals, samples, runs or records. Numbers after ± are the reported error.

O=C1[C@@H](Oc2ccccc2)[C@@H](c2ccc(Cl)cc2)N1CCCn1cnc2c(NCc3ccccc3)ncnc21
EC50 (Chikungunya virus; viral replication): 17100 nM

C#Cc1cn(C2OC(CSCCC(N)C(=O)O)C(O)C2O)c2ncnc(N)c12 (stereo not shown)
IC50 (SARS-CoV-2 nsp16 methyltransferase; enzyme activity, inhibitor): 1200 nM

CC(=O)N[C@@H](CCCNC(=N)N)C(=O)N[C@@H](CCCNC(=N)N)C(=O)N[C@@H](Cc1ccc2ccccc2c1)C(=O)N[C@H]1CSSC[C@@H](C(=O)N[C@@H](CCCNC(=N)N)C(N)=O)NC(=O)[C@H](CCCNC(N)=O)NC(=O)[C@H](CCCNC(=N)N)NC(=O)[C@H](Cc2ccc(O)cc2)NC(=O)[C@@H]2CCCN2C(=O)[C@@H](CCCNC(N)=O)NC(=O)[C@H](CCCCN)NC(=O)[C@H](CCCNC(N)=O)NC(=O)[C@H](Cc2ccc(O)cc2)NC1=O
EC50 (HIV; viral replication): 29 nM

NC(=O)c1ccc2c(c1)C(=O)C(=O)N2Cc1ccc2ccccc2c1
IC50 (SARS-CoV-2 main protease): 45 nM

Nc1c(C(=O)NCc2ccc(F)cc2F)c(=O)n(O)c2ncccc12
EC50 (HIV-1; viral replication; integrase R263K mutant): 6.4 ± 2.3 nM

CC(C)(C#Cc1ccc(-c2ccc(Cl)c3c(NS(C)(=O)=O)nn(CC(F)(F)F)c23)c([C@H](Cc2ccccc2)NC(=O)Cn2nc(C(F)(F)F)c3c2C(F)(F)[C@@H]2C[C@H]32)n1)S(C)(=O)=O
EC50 (HIV-1; viral replication): 444 nM

CC[C@H](C)[C@H](NC(=O)[C@H](Cc1ccc(O)cc1)NC(=O)[C@H](Cc1c[nH]cn1)NC(=O)[C@@H]1CSSC[C@H](NC(=O)[C@@H]2CCCN2C(=O)[C@H](CCCNC(=N)N)NC(=O)[C@H](CC(C)C)NC(=O)[C@H](CC(=O)O)NC(=O)[C@@H]2CCCN2C(=O)[C@H](CCCCN)NC(=O)CNC(=O)CN)C(=O)N[C@@H](Cc2ccc(O)cc2)C(=O)N2CCC[C@H]2C(=O)N2CCC[C@H]2C(=O)N1)C(=O)N1CCC[C@H]1C(=O)N[C@@H](CCCNC(=N)N)C(=O)N1CCC[C@H]1C(=O)N[C@@H](CCCCN)C(=O)N1CCC[C@H]1C(=O)N[C@@H](CCCNC(=N)N)C(=O)O
LD50 (mouse): 0.58 mg/kg

O=C(CNc1nc(N2CCc3ccccc3C2)nc2ccccc12)Nc1ccccc1
inhibition (SARS-CoV-2 RdRp; 10 µM): 58.8%

Cc1cc(C#N)cc(C)c1Oc1nc(NC2CCN(Cc3ccc(S(N)(=O)=O)cc3)CC2)nc2ccsc12
EC50 (HIV-1; viral cytopathic effect, MTT; MT-4, K103N mutant): 2.9 nM

CCc1nc2c(nnn2-c2cccc(OC(C)C)c2)c(=O)[nH]1
selectivity index (Chikungunya virus; relative to: CC50 over EC50): > 600

C[n+]1cn(C2OC(COP(=O)(O)OP(=O)(O)OP(=O)(O)O)C(O)C2O)c2nc(N)[nH]c(=O)c21 (stereo not shown)
enzyme activity (vaccinia virus D10 MBP fusion; inhibitor; concentration not given, single turnover): inhibited

O=C(NCc1ccc(F)cc1F)c1cn2ccn(CCCCCO)c(=O)c2c(O)c1=O
EC50 (HIV-1 integrase S230N; viral replication; HIV-1; single-round vector): 15.4 ± 0.3 nM

NCC(CCC(N)C(=O)O)CC1OC(n2cnc3c(N)ncnc32)C(O)C1O (stereo not shown)
IC50 (SARS-CoV-2 nsp16 methyltransferase; enzyme activity, inhibitor): 3400 nM

C[n+]1cn(C2OC(COP(=O)(O)OP(=O)(O)OP(=O)(O)OCC3OC(n4cnc5c(=O)[nH]c(N)nc54)C(O)C3O)C(O)C2O)c2nc(N)[nH]c(=O)c21 (stereo not shown)
enzyme activity (vaccinia virus D10 MBP fusion; inhibitor; concentration not given, single turnover): inhibited

Oc1cc(O)c2c(c1)OC(c1ccc(O)c(O)c1)C(O)C2c1c(O)cc(O)c2c1OC(c1ccc(O)c(O)c1)C(O)C2 (stereo not shown)
inhibition (Replicase polyprotein 1ab, papain-like protease (rep, Severe acute respiratory syndrome coronavirus 2, UniProt P0DTD1); enzyme activity; concentration not given, with: DTT): inactive

O=C(NCc1ccc(F)cc1F)c1cn2c(c(O)c1=O)C(=O)N(CCCCCCO)CC2
EC50 (HIV-1 integrase S230N; viral replication; HIV-1; single-round vector): > 30 nM and 38 nM

For quick reference, copied from above:
O=C1[C@@H](Oc2ccccc2)[C@@H](c2ccc(Cl)cc2)N1CCCn1cnc2c(NCc3ccccc3)ncnc21
EC50 (Chikungunya virus; viral replication): 17100 nM
